Results collected from several papers.
Several values in a cell are separate wells, animals, samples, runs or records. ± marks the error that the study gave.
ESR1: Estrogen receptor (ESR1, Homo sapiens, UniProt P03372)
ABO G235S/G268A/L266M/R176G: Histo-blood group ABO system transferase (ABO, Homo sapiens, UniProt P16442, G235S/G268A/L266M/R176G)
T1: DNA aptamer; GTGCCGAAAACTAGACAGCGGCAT

| SMILES | target | test | test system | conditions | how to read | measurement | result |
| --- | --- | --- | --- | --- | --- | --- | --- |
| O=C(NC1CC=C(c2cc3c(Nc4cc5ncsc5cc4F)ncnc3s2)CC1)NC1CCCC1 (racemic) | Receptor-interacting serine/threonine-protein kinase 1 (RIPK1, Homo sapiens, UniProt Q13546) | enzyme activity | – | 1 µM | reference: untreated | remaining activity | 94 ± 1% |
| CCSc1nc2c([nH]1)c(=S)n(C)c(=S)n2C | ESR1 | reporter gene, ERE luciferase | T47D-KBluc | 10 µM, 24 h, together with: estradiol 5 nM | reference: maximal luciferase activity | reporter activity | 95% |
| Cn1c(-c2ccccc2)ccc1-c1nc(-c2ncc(Br)cn2)no1 | Programmed cell death 1 ligand 1, with PD-1 (CD274, Homo sapiens, UniProt Q9NZQ7) | PD-1/PD-L1 binding, inhibitor, TR-FRET | – | 5 µM, room temperature | reference: no inhibitor | remaining binding | 61 ± 12% |
| CC/C(=C(\c1ccc(O)cc1)c1ccc(OCCN(C)CCOCCOCCOCCN(C)CCOc2ccc(/C(=C(\CC)c3ccccc3)c3ccc(O)cc3)cc2)cc1)c1ccccc1 | Estrogen receptor beta (ESR2, Homo sapiens, UniProt Q92731) | radioligand competition binding | – | concentration not given, Z-E/E isomer form, together with: [3H]estradiol tracer | reference: estradiol | relative binding affinity | 9.57% |
| C[C@H](CCC(=O)N[C@@H](CCC(=O)Nc1ccc(O)cc1)C(=O)O)[C@H]1CC[C@H]2[C@@H]3[C@H](O)C[C@@H]4C[C@H](O)CC[C@]4(C)[C@H]3CC[C@]12C | Ileal sodium/bile acid cotransporter (SLC10A2, Homo sapiens, UniProt Q12908) | transport, substrate, LC-MS/MS | ASBT-MDCK cells | – | – | Kt | 15.3 µM |
| CS(=O)(=O)CCC1NC(=O)C(Cc2ccco2)NC(=O)C(CC2CC2)NC(=O)C=CC(=O)NC(C(N)=O)CCNC1=O (stereo not drawn) | MAP kinase-activated protein kinase 2 (MAPKAPK2, Homo sapiens, UniProt P49137) | DNA-templated library selection | – | one selection round | – | enrichment factor | 0.65 |
| CC(C=CC=CC=CC1=C(C)CCCC1(C)C)=CCO | Rhodopsin (RHO, Homo sapiens, UniProt P08100, P23H) | pharmacological chaperone, immunostaining, nonpermeabilized cells | 661W | 2.5 µM, 16 h | reference: untreated cells | cell surface expression | ~2 fold |
| CCCCCCCCO[C@@H]1O[C@H](CO)[C@H](O)[C@H](O)[C@H]1O[C@@H]1O[C@@H](C)[C@@H](O)[C@@H](O)[C@@H]1O | ABO G235S/G268A/L266M/R176G | methyl-TROSY NMR titration lineshape | – | two-state binding model, together with: acceptor binding, saturating UDP | – | kon | 250000 M⁻¹ s⁻¹ |
| Cc1cc(=O)oc2cc(NC(=O)[C@H](Cc3ccc(O)cc3)NC(=O)[C@H](CCC(N)=O)NC(=O)[C@H](CCC(N)=O)NC(=O)[C@H](CO)NC(=O)[C@H](CCCCN)NC(=O)[C@H](CCCNC(=N)N)NC(=O)[C@H](CO)NC(=O)N3CCOCC3)ccc12 | Prostate-specific antigen (Homo sapiens, UniProt P07288) | substrate | – | – | – | Km | 140 µM |
| C[C@H](Cn1cnc2c(N)ncnc21)OCP(=O)(O)O | T1, DNA aptamer | interferometric free solution assay | – | 2 h, 22 °C, NaCl 150 mM, single-site fit | – | Kd | 4.17 nM |
| CC(=O)N(Cc1ccccc1)[C@@H](C)C(=O)N(C)[C@@H](C)C(=O)N(Cc1c[nH]c2cc(Cl)ccc12)[C@@H](C)C(=O)N(C)[C@@H](C)C(=O)N(CCC(C)(C)C)[C@@H](C)C(=O)N1CCNCC1 | E3 ubiquitin-protein ligase Mdm2, N-terminal domain 17-125 (MDM2, Homo sapiens, UniProt Q00987) | isothermal titration calorimetry | PBS | concentration not given, 25 °C | – | binding entropy term (-TΔS) | -0.59 kcal/mol |
| CC(C)C[C@H](NC(=O)[C@H](CC(C)C)NC(=O)[C@H](CC(N)=O)NC(=O)[C@H](Cc1c[nH]c2ccccc12)NC(=O)[C@H](Cc1ccc(O)cc1)NC(=O)[C@H](CCC(=O)O)NC(=O)[C@H](C)NC(=O)[C@@H](N)Cc1ccccc1)C(=O)O | E3 ubiquitin-protein ligase Mdm2 (MDM2, Homo sapiens, UniProt Q00987) | SPR competition binding | – | – | reference: PMI | fold increase in Kd | 2780 fold |
| O=C(OCc1cccc(O)c1O)c1ccc(O)c(CO)c1 | Xanthine dehydrogenase/oxidase (XDH, Homo sapiens, UniProt P47989) | superoxide production, lucigenin chemiluminescence | – | – | – | antioxidant threshold concentration | > 50 µM |
| CC(C)(C)CCN1C[C@@H]2[C@@H](CNC(=O)c3cc(Cl)cc(Cl)c3)[C@@H]2C1.Cl | Voltage-dependent L-type calcium channel subunit alpha-1F (Homo sapiens, UniProt O60840, M1004A) | calcium current, whole-cell patch clamp | HEK-293T cells | 100 µM | – | reversal potential | 60.8 ± 4.45 mV |
| Nc1c2[nH]nc3c2nc[n+]1[C@@H]1O[C@H](COP(=O)(O)OP(=O)([O-])OC[C@H]2O[C@@H]3[C@H](O)[C@@H]2O)[C@@H](O)[C@H]1O | cADPR receptor, sea urchin | Ca2+ release, fluo-3 fluorimetry | sea urchin egg homogenate | concentration not given | – | activity class | active |
| CCNC(=O)[C@H]1O[C@@H](n2cnc3c(NCCOCCOCCNC(=O)CCCCCNC(=O)COc4ccc(/C=C/C5=[N+]6C(=Cc7ccc(-c8cccs8)n7[B-]6(F)F)C=C5)cc4)ncnc32)[C@H](O)[C@@H]1O | Adenosine receptor A1 (ADORA1, Homo sapiens, UniProt P30542) | CRE reporter gene, agonist | CHO-A1 | PTX 100 ng/mL overnight, together with: forskolin 3 µM | reference: forskolin alone | maximal Gs response | 1.31 ± 0.06 fold increase |
| CSCC[C@H](NC(=O)[C@H](CO)NC(=O)[C@@H](NC(=O)[C@H](CCC(N)=O)NC(=O)[C@@H](CCCNC(=N)N)NC(=O)[C@@H](CCCNC(=N)N)NC(=O)[C@@H](CCCCN)NC(=O)[C@@H](CCCNC(=N)N)NC(C)=O)[C@@H](C)O)C(=O)N[C@H](C(=O)N[C@@H](CC(=O)O)C(=O)N[C@@H](Cc1ccccc1)C(=O)N[C@@H](Cc1ccc(O)cc1)C(=O)N[C@@H](Cc1c[nH]cn1)C(=O)N[C@@H](CO)C(=O)N[C@H](CCCCN)C(=O)N[C@H](CCCNC(=N)N)C(=O)N[C@H](CCCNC(=N)N)C(N)=O)[C@@H](C)O | Proliferating cell nuclear antigen (PCNA, Homo sapiens, UniProt P12004) | binding, isothermal titration calorimetry | – | pH 7.4, 25 °C, 200 mM NaCl, together with: p21 peptide | – | entropic term −TΔS | 12.7 ± 0.956 kcal/mol |
| CCC(=C(c1ccc(Cl)cc1)c1ccc(OCCN(C)C)cc1)c1ccc(Cl)cc1 | ESR1 | reporter gene, agonist, yeast estrogen screen | – | 1 µM | reference: DMSO | fold activation | 1.17 ± 0.07 fold |
| CCCCCC(C)NCC(=O)O (stereo not drawn) | Albumin (ALB, Homo sapiens, UniProt P02768) | circular dichroism | – | 0.6 mM | – | random coil content | 33.6% |
| C=CCCCCCCO[C@@H]1O[C@H](CO)[C@@H](O[C@@H]2O[C@H](CO)[C@H](O)[C@H](O)[C@H]2O[C@@H]2O[C@@H](C)[C@@H](O)[C@@H](O)[C@@H]2O)[C@H](O)[C@H]1NC(C)=O | ABO G235S/G268A/L266M/R176G | methyl-TROSY NMR titration lineshape | – | two-state binding model, together with: acceptor binding, saturating UDP | – | kon | 170000 M⁻¹ s⁻¹ |
| Cc1cc(N2CC[C@@](C#N)(C3CC3)C2=O)cc(NC(=O)Cc2ccccc2)n1 | Bifunctional glutamate/proline--tRNA ligase, prolyl-tRNA synthetase domain (EPRS1, Homo sapiens, UniProt P07814) | thermal shift | – | – | – | melting temperature | 64.1 °C and 70.1 °C and 70.6 °C |

For quick reference, copied from above:
| SMILES | target | test | test system | conditions | how to read | measurement | result |
| --- | --- | --- | --- | --- | --- | --- | --- |
| CSCC[C@H](NC(=O)[C@H](CO)NC(=O)[C@@H](NC(=O)[C@H](CCC(N)=O)NC(=O)[C@@H](CCCNC(=N)N)NC(=O)[C@@H](CCCNC(=N)N)NC(=O)[C@@H](CCCCN)NC(=O)[C@@H](CCCNC(=N)N)NC(C)=O)[C@@H](C)O)C(=O)N[C@H](C(=O)N[C@@H](CC(=O)O)C(=O)N[C@@H](Cc1ccccc1)C(=O)N[C@@H](Cc1ccc(O)cc1)C(=O)N[C@@H](Cc1c[nH]cn1)C(=O)N[C@@H](CO)C(=O)N[C@H](CCCCN)C(=O)N[C@H](CCCNC(=N)N)C(=O)N[C@H](CCCNC(=N)N)C(N)=O)[C@@H](C)O | Proliferating cell nuclear antigen (PCNA, Homo sapiens, UniProt P12004) | binding, isothermal titration calorimetry | – | pH 7.4, 25 °C, 200 mM NaCl, together with: p21 peptide | – | entropic term −TΔS | 12.7 ± 0.956 kcal/mol |
| CCC(=C(c1ccc(Cl)cc1)c1ccc(OCCN(C)C)cc1)c1ccc(Cl)cc1 | ESR1 | reporter gene, agonist, yeast estrogen screen | – | 1 µM | reference: DMSO | fold activation | 1.17 ± 0.07 fold |
| CCCCCC(C)NCC(=O)O (stereo not drawn) | Albumin (ALB, Homo sapiens, UniProt P02768) | circular dichroism | – | 0.6 mM | – | random coil content | 33.6% |
